{"data": "Published values pooled from the literature", "organism": "Escherichia coli", "note": "Compare with care: the assays were run in different laboratories. Numbers after ± are the reported error. Ends that are not written are not given here."}
{"Substance": "CC[C@H]1OC(=O)[C@H](C)[C@@H](O[C@H]2C[C@@](C)(OC)[C@@H](O)[C@H](C)O2)[C@H](C)[C@@H](O[C@@H]2O[C@H](C)C[C@H](N(C)C)[C@H]2O)[C@](C)(O)C[C@@H](C)C(=O)[C@H](C)[C@@H](O)[C@]1(C)O", "assay": "in vitro translation, SNAPf fluorescence", "test system": "E. coli MRE600 70S ribosomes", "setting": "2 h, 37 °C", "measurement": "IC50", "result": "42 ± 10 nM"}
{"Substance": "KFFKFFKFFK (peptide-PNA conjugate)", "test system": "peptide, UPEC 536", "setting": "1.25 µM, 60 to 120 min", "measurement": "reduction in viable count", "result": "1 log cfu/mL"}
{"Substance": "COc1cc(C=Nc2ccccc2Br)ccc1O", "assay": "microbial growth, disc diffusion", "setting": "2000 µg/mL, 24 h", "measurement": "inhibition zone", "result": "≤ 16.6 mm"}
{"Substance": "CCOC(=O)c1c(N)csc1-c1cn(-c2ccccc2)nc1-c1ccc(C)cc1", "assay": "broth microdilution", "test system": "clinical urinary isolate", "setting": "compound gamma-irradiated 10 kGy", "measurement": "MIC", "result": "0.122 ± 0.2 µg/mL"}
{"Substance": "CC[C@H]1OC(=O)[C@H](C)[C@@H](O[C@H]2C[C@@](C)(OC)[C@@H](O)[C@H](C)O2)[C@H](C)[C@@H](O[C@@H]2O[C@H](C)C[C@H](N(C)C)[C@H]2O)[C@](C)(O)C[C@@H](C)CN(C)[C@H](C)[C@@H](O)[C@]1(C)O", "test system": "hospitalized pneumonia patients, clinical isolates", "setting": "Fine score 70 or more", "measurement": "susceptible isolates", "result": "0%"}
{"Substance": "C[C@@H](O)[C@H]1C(=O)N2C(C(=O)O)=C(S[C@@H]3CN[C@H](C(=O)N(C)C)C3)[C@H](C)[C@H]12", "assay": "checkerboard", "test system": "ATCC 25922", "setting": "added: magainin II", "measurement": "FIC index", "result": 0.312}
{"Substance": "CC[C@H]1OC(=O)[C@H](C)[C@@H](O[C@H]2C[C@@](C)(OC)[C@@H](O)[C@H](C)O2)[C@H](C)[C@@H](O[C@@H]2O[C@H](C)C[C@H](N(C)C)[C@H]2O)[C@](C)(O)C[C@@H](C)C(=O)[C@H](C)[C@@H](O)[C@]1(C)O", "test system": "hospitalized pneumonia patients, clinical isolates", "setting": "Fine score 70 or more", "measurement": "susceptible isolates", "result": "0%"}
{"Substance": "GSSFLSPEHQRVQQRKESKKPPAKLQPR (ghrelin; ends and bridges not checked; sequence looked up)", "assay": "bacterial killing", "test system": "peptide, ATCC 27325, sodium phosphate buffer", "setting": "2 h, pH 6.8, 37 °C", "scale": "relative to: untreated", "measurement": "bactericidal concentration", "result": "≥ 12.5 µg/mL"}
{"Substance": "GWGSFFKKAAHVGKHVGKAALTHYL-NH2 (C-amide)", "assay": "bacterial growth, broth microdilution", "test system": "peptide, TOP10, Mueller-Hinton broth", "setting": "overnight, 37 °C", "measurement": "MIC50", "result": "0.18 ± 0.02 µg/mL"}
{"Substance": "CC(C)C[C@H](NC(=O)CNC(=O)[C@H](C)NC(=O)[C@H](CCCNC(=N)N)NC(=O)[C@H](CO)NC(=O)[C@H](CO)NC(=O)[C@H](CCCNC(=N)N)NC(=O)[C@@H](N)[C@@H](C)O)C(=O)N[C@@H](CCC(N)=O)C(=O)N[C@@H](Cc1c[nH]c2ccccc12)C(=O)N1CCC[C@H]1C(=O)N[C@H](C(=O)NCC(=O)N[C@@H](CCCNC(=N)N)C(=O)N[C@H](C(=O)N[C@@H](Cc1c[nH]cn1)C(=O)N[C@@H](CCCNC(=N)N)C(=O)N[C@@H](CC(C)C)C(=O)N[C@@H](CC(C)C)C(=O)N[C@@H](CCCNC(=N)N)C(=O)N[C@@H](CCCCN)C(=O)O)C(C)C)C(C)C", "assay": "membrane permeabilization, propidium iodide uptake", "setting": "2 µM, 5 min, pH 7.4", "scale": "relative to: before addition", "measurement": "fluorescence ratio", "result": "1.29 ± 0.1"}
{"Substance": "CC[C@H](C)[C@H](NC(=O)CNC(=O)[C@H](CCC(=O)O)NC(=O)[C@H](CO)NC(=O)[C@@H](NC(=O)[C@H](CCCNC(=N)N)NC(=O)[C@H](CCCCN)NC(=O)[C@H](CCCCN)NC(=O)[C@H](C)NC(=O)[C@H](CO)NC(=O)[C@H](CC(N)=O)NC(=O)[C@H](CCC(=O)O)NC(=O)[C@H](CC(C)C)NC(=O)[C@H](CCCCN)NC(=O)[C@H](CCCCN)NC(=O)[C@H](C)NC(=O)[C@@H](NC(=O)[C@H](CCCCN)NC(=O)[C@H](CO)NC(=O)[C@H](CC(C)C)NC(=O)[C@H](Cc1c[nH]c2ccccc12)NC(=O)[C@@H](N)CO)[C@@H](C)O)[C@@H](C)CC)C(=O)N[C@@H](C)C(=O)N[C@H](C(=O)N[C@@H](C)C(=O)N[C@H](C(=O)N[C@@H](CCC(N)=O)C(=O)NCC(=O)NCC(=O)N1CCC[C@H]1C(=O)N[C@@H](CCCNC(=N)N)C(=O)O)[C@@H](C)CC)[C@@H](C)CC", "assay": "broth microdilution", "setting": "18 h, 30 clinical isolates", "measurement": "MIC50", "result": "0.5 µg/mL"}
{"Substance": "TRSSRAGLQWPVGRVHRLLRK-NH2 (C-amide)", "assay": "bacterial growth, broth microdilution", "test system": "peptide, NCTC 9001, Mueller-Hinton broth", "setting": "overnight, 37 °C", "measurement": "MIC50", "result": "> 25.9 µg/mL"}
{"Substance": "COc1cc(C=Nc2ccc([N+](=O)[O-])cc2)ccc1O", "assay": "microbial growth, disc diffusion", "setting": "2000 µg/mL, 24 h", "measurement": "inhibition zone", "result": "≤ 16.6 mm"}
{"Substance": "CC1(C)S[C@@H]2[C@H](NC(=O)C(C(=O)O)c3ccccc3)C(=O)N2[C@H]1C(=O)O (some centres unmarked)", "assay": "broth microdilution", "test system": "BW25113, Mueller-Hinton broth", "setting": "added: CCCP 50 µg/mL", "measurement": "MIC", "result": "12.5 µg/mL"}
{"Substance": "C[C@H]1c2cccc(O)c2C(=O)C2=C(O)[C@]3(O)C(=O)C(C(N)=O)=C(O)[C@@H](N(C)C)[C@@H]3[C@@H](O)[C@@H]21", "assay": "checkerboard", "test system": "ATCC 25922", "setting": "added: magainin II", "measurement": "FIC index", "result": 1.5}
{"Substance": "GIGKFLHSAKKFGKAFVGEIMNS-NH2 (C-amide)", "assay": "bacterial growth, broth microdilution", "test system": "peptide, TOP10, Mueller-Hinton broth", "setting": "overnight, 37 °C", "measurement": "MIC50", "result": "1.79 ± 0.13 µg/mL"}
{"Substance": "CC[C@@H](C)[C@@H](NC(=O)[C@@H](Cc1c[nH]c2ccccc12)NC(=O)[C@H](N)CCCNC(=N)N)C(=O)N[C@H](CCCNC(=N)N)C(=O)N[C@H](Cc1c[nH]c2ccccc12)C(=O)N[C@@H](C(=O)N[C@H](Cc1c[nH]c2ccccc12)C(=O)N[C@H](CCCNC(=N)N)C(=O)N[C@H](CCCCN)C(=O)N[C@H](CCCCN)C(=O)N[C@H](CC(C)C)C(=O)N[C@H](CCCNC(=N)N)C(N)=O)C(C)C", "assay": "broth microdilution", "test system": "ATCC 25922, LB medium", "setting": "16 to 20 h, 37 °C", "measurement": "MIC", "result": "3.12 to 6.25 µg/mL"}
{"Substance": "CCN1CCN(C(=O)N[C@@H](C(=O)N[C@@H]2C(=O)N3[C@@H]2SC(C)(C)[C@@H]3C(=O)O)c2ccccc2)C(=O)C1=O", "assay": "checkerboard", "test system": "ATCC 25922", "setting": "added: magainin II", "measurement": "FIC index", "result": 0.312}
{"Substance": "CNC(C)C1CCC(N)C(OC2C(N)CC(N)C(OC3OCC(C)(O)C(NC)C3O)C2O)O1 (centres unmarked)", "assay": "broth microdilution", "test system": "ATCC 25922", "setting": "37 °C", "measurement": "MIC", "result": "0.78 to 1.56 µg/mL"}
{"Substance": "CC(C)(O/N=C(\\C(=O)N[C@@H]1C(=O)N2C(C(=O)[O-])=C(C[n+]3ccccc3)CS[C@H]12)c1csc(N)n1)C(=O)O", "assay": "checkerboard", "test system": "ATCC 25922", "setting": "added: magainin II", "measurement": "FIC index", "result": 0.187}
{"note": "A few entries again:"}
{"Substance": "CCOC(=O)c1c(N)csc1-c1cn(-c2ccccc2)nc1-c1ccc(C)cc1", "assay": "broth microdilution", "test system": "clinical urinary isolate", "setting": "compound gamma-irradiated 10 kGy", "measurement": "MIC", "result": "0.122 ± 0.2 µg/mL"}
{"Substance": "CC[C@H]1OC(=O)[C@H](C)[C@@H](O[C@H]2C[C@@](C)(OC)[C@@H](O)[C@H](C)O2)[C@H](C)[C@@H](O[C@@H]2O[C@H](C)C[C@H](N(C)C)[C@H]2O)[C@](C)(O)C[C@@H](C)CN(C)[C@H](C)[C@@H](O)[C@]1(C)O", "test system": "hospitalized pneumonia patients, clinical isolates", "setting": "Fine score 70 or more", "measurement": "susceptible isolates", "result": "0%"}
